# Results collected from several papers.
# Parts stem from different laboratories: compare values within a part only. Positions count from the first letter of the parent shown.

# Block 1 — method: DHFR PCA, deep sequencing; medium: yeast; added: (+)-ABA 58 µM; relative to: wild-type fitted maximum; direction: higher = stronger binding
# Target: ABI1, truncated, D143A, DHFR fusion (Arabidopsis thaliana)
# Notes: methotrexate growth selection, single substitutions
# Parent: PYL1, truncated, DHFR fusion (Arabidopsis thaliana); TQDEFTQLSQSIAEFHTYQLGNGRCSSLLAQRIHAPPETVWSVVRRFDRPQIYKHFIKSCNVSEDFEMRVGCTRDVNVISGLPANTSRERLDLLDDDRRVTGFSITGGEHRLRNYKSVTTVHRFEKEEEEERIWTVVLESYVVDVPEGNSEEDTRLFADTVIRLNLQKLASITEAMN
Change,relative binding score
V145W,0.103%
F103H,11.1%
F15K,13.7%
Y18L,63.4%
E130A,94.1%
T101I,92.2%
L29S,52.4%
G107M,25.7%
P83Q,31.2%
R132G,103%
I172E,45.6%
S26A,80.4%
S9A,98.5%
L169E,-0.976%
I33W,4.38%
L112S,-1.68%
Y141E,0.0636%
V40D,-9.61%

# Block 2 — target: CCNE1, cyclin fold, Cln2 fusion (human); method: yeast growth competition, sequencing; medium: yeast; notes: weak parent motif; relative to: not given; direction: higher = stronger binding
# Parent: EXO1 docking peptide (human); KPECGRVQRAIFQ
Change,normalised enrichment score
K1A,0.059
R6A,0.0228
F12A,0.0918
P2A,0.313
R9A,-0.0326
I11A,-0.0111

# Block 3 — target: CREM, bZIP domain (human); method: DHFR protein complementation; medium: yeast; relative to: wild-type JUN-FOS pair; direction: higher = stronger binding
# Notes: single substitutions, most at no-binding floor
# Parent: JUN, bZIP domain (human); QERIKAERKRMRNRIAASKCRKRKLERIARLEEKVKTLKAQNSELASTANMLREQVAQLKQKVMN; partner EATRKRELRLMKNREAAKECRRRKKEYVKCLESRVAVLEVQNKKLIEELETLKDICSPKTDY
Change,binding fitness
A46N,-1.38 natural log
I28T,-1.54 natural log
L45W,-1.47 natural log
E54V,-1.46 natural log
M51A,-1.37 natural log
I28A,-1.49 natural log
S43L,-1.42 natural log
V35S,-1.52 natural log
S47K,-0.942 natural log
S43D,-1.37 natural log
L52P,-1.49 natural log
T48A,-1.33 natural log
A29P,-1.42 natural log
L45Q,-1.54 natural log
M51K,-1.5 natural log
E32K,-1.45 natural log
R30E,-1.28 natural log
K34P,-1.48 natural log
K39M,-1.26 natural log
E32A,-1.53 natural log
T37V,-1.39 natural log
E44Q,-1.36 natural log
K36V,-1.46 natural log

# Other studies, line by line
Substance,target,test,test system,conditions,scale,quantity,result
"PhoQ, residues 284 288 289 292 302 303 SNSSNI","PhoP, residues 12 14 15 18 19 MHTVL (Escherichia coli, UniProt P23836)","Sort-seq, refers to: YFP reporter",E. coli,"PhoQ-PhoP variant library, added: 10 µM Mg2+","relative to: high Mg2+ state, higher = stronger signaling",fold induction,6.6

# Excerpt of the above (block 1):
Change,relative binding score
T101I,92.2%
I33W,4.38%
F15K,13.7%
I172E,45.6%
Y141E,0.0636%
